Published values of several laboratories.
Each numbered part is a random draw from the data of one study; scales do not carry over between parts. Changes are numbered by the printed parent chain.

Sample 1
Target: CCNE2, cyclin fold, Cln2 fusion (human)
Method: yeast growth competition, sequencing
Sample: yeast
Notes: weak parent motif
Baseline: not given
Direction: higher = stronger binding
Endpoint: normalised enrichment score
Starting sequence: RP1L1 docking peptide (human); TLGLGPLSFTLED
ALGLGPLSFTLED [T1A]: -0.076
TLALGPLSFTLED [G3A]: -0.15
TLGLGPLSFTLEA [D13A]: -0.0345
TLGAGPLSFTLED [L4A]: -0.299
TLGLGPASFTLED [L7A]: -0.0757
TAGLGPLSFTLED [L2A]: -0.256

Sample 2
Target: Sal-like protein 4, full length isoform B (SALL4, Homo sapiens, UniProt Q9UJQ4-2, residues 1-616)
Method: universal PBM
Molecule type: double-stranded DNA, one strand shown
Sample: in vitro
Concentration: not given
Notes: 8-mer, flanks averaged, mean of replicates
Direction: higher = stronger binding
Endpoint: E-score
TGTGGCAA: 0.0987
ATATCTCC: 0.235
TTTAAAAA: 0.285
AGATACGC: -0.0547
CTGCCTTA: -0.0358
ACCATCGT: -0.131
ATAGGTGA: 0.169
ACAGACCC: -0.167
AATAAGCT: 0.204
AAGGTTGT: 0.0407
AGTCACGG: -0.0846
AGGACACT: -0.0977
CTGGCATC: -0.252
ATACGCAC: 0.0888
CTTTGGCC: -0.0865
GCAAAAGA: -0.0183

Sample 3
Target: Ras GTPase-activating protein-binding protein 1, full length (G3BP1, Homo sapiens, UniProt Q13283)
Chain of UniProt Q13283 (whole entry, looked up): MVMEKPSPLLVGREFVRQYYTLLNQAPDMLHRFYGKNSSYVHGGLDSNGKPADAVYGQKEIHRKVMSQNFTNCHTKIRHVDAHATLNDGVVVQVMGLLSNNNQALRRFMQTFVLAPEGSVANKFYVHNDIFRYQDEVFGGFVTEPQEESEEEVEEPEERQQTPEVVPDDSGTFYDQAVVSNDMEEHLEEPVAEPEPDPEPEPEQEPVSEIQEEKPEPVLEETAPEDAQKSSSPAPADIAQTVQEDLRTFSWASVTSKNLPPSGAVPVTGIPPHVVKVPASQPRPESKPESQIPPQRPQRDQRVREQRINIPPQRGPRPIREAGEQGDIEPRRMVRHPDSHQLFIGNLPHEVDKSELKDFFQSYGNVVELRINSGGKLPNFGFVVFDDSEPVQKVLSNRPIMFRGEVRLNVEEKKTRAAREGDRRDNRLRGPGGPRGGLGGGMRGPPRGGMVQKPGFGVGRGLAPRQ
Method: RNA Bind-n-Seq
Molecule type: RNA
Sample: in vitro
Concentration: 200 nM
Notes: whole 134-nt RNA, ends assumed
Added: 150 mM LiCl
Baseline: input library
Direction: higher = stronger binding
Endpoint: log2 enrichment
All molecules: 7-deaza-guanosine replaces G
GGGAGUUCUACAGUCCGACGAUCUGGGUGAAGAGGGACAGUUACCUUCCUGUGGGCAGUCAUAAUCUCAAGGCGGCCGCCAAGGCCAAGCUAGGCUAUGAUCCCGUGGAGCUAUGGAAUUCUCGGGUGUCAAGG: -0.978
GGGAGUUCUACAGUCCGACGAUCAGUCCUGUGCUACACAUCGUAUGUACCGAAUCGGGUUUUUGGGUUUUUUUGGGAGGGAAAGUAUUAUGUUACGCCGUUCGGAUCUGCACUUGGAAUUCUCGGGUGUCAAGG: 0.137
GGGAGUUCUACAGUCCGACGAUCGUCCUGUGCUACACAUCGUAUGUACCGAAUCGGGAAAAAGGGAAAAAGGGAAAAAGGGGAAAGUAUUAUGUUACGCCGUUCGGAUCUGCAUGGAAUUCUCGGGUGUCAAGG: 0.0133
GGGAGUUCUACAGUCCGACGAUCAGUCCUGUGCUACACAUCGUAUGUACCGAAUCGGUUUUUUUGGAAAGGUUUUUUUGGAAAGUAUUAUGUUACGCCGUUCGGAUCUGCACUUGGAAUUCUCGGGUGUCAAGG: -2.47
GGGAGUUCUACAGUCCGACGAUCCACAGACAACACGCACCCACACAGACACAGAGGGAAGGGGUUGGGAUGGGGACAGGGUGCACAGCAGGGCGGGGUAGGACCCCAACCCCUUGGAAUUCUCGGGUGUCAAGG: 0.52
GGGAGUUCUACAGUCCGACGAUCGCAGGAAGUAAAAACAAAUGGAAAUGCUUCGGAUAGUGGCAGGGGUGGGGGUUGCUAAGGAAAGGGUGGGAUGGGGGUGGGUAAAGAGUUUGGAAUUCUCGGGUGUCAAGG: -0.0312
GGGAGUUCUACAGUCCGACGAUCCUCAAGUCCUGUGCUACACAUCGUAUGUACCGAAUCGGGCCGGGGCCGGCCGGGAAAGUAUUAUGUUACGCCGUUCGGAUCUGCACUUCCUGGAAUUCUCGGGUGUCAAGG: 0.388
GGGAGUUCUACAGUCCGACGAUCGCUGGAAGUAAAAACAAAUGGAAAUGCUUCGGAUAGUGGCAGGGGUGGGGGUUGCUAAGGAAAGGGUGGGAUGGGAGUGGGUAAAGAGUUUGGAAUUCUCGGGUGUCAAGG: -0.209

Sample 4
Target: ABI1, truncated, D143A, DHFR fusion (Arabidopsis thaliana, UniProt P49597)
Method: DHFR PCA, dose-response
Sample: yeast
Notes: Hill fit, not affinity, not high confidence
Added: (+)-ABA, dose series
Direction: lower = more sensitive
Endpoint: ABA EC50
Starting sequence: PYL1, truncated, DHFR fusion (Arabidopsis thaliana, UniProt Q8VZS8); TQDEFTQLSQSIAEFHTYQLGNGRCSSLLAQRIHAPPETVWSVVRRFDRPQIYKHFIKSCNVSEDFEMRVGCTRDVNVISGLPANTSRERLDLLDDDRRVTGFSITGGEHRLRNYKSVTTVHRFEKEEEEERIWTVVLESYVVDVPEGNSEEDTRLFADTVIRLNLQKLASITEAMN
S87H: 0.77 µM
V161G: 2.69 µM
H110E: 0.388 µM
V100E: 1180 µM
I105P: 1.09 µM
F157D: 0.334 µM
P146M: 204 µM
V78H: 0.432 µM
C25D: 66.8 µM
V78K: 155 µM

Sample 5
Target: Prothrombin, mature alpha-thrombin (F2, Homo sapiens, UniProt P00734)
Method: aptamer microarray, sandwich
Molecule type: DNA with 2'F-ANA
Sample: in vitro
Concentration: 200 nM
Notes: whole 15-mer aptamer, many near background
Added: Cy3 exosite-II aptamer, 400 nM
Direction: higher = stronger binding
Endpoint: mean fluorescence intensity
Strand: GGTTGGTGTGGTTGG
2'F-ANA at 1 3 5 8 10 11 12 14: 44.1 a.u.
2'F-ANA at 2 6 7 8 9 11 14: 131 a.u.
2'F-ANA at 1 3 7 11 12 13 15: 360 a.u.
2'F-ANA at 1 2 5 7 9 10 11 12: 49.2 a.u.
2'F-ANA at 1 3 4 9 14: 61.9 a.u.
2'F-ANA at 1 2 3 6 10 11 13 15: 59.3 a.u.
2'F-ANA at 1 2 4 5 6 7 8 9 10 11 14 15: 57.6 a.u.
2'F-ANA at 1 3 4 5 6 8 10 11 12: 47.8 a.u.
2'F-ANA at 3 5 7 8 13 14: 62.5 a.u.
2'F-ANA at 1 2 3 4 6 8 9 10 11 12 13 14: 62.7 a.u.
2'F-ANA at 1 3 4 9 12 13 14: 67.5 a.u.
2'F-ANA at 1 4 5 7 8 10 12 13 15: 46.4 a.u.

Sample 6
Target: Hepatocyte nuclear factor 3-alpha (Foxa1, Mus musculus, UniProt P35582, residues 1-468, full length assumed)
Chain of UniProt P35582 (whole entry, looked up): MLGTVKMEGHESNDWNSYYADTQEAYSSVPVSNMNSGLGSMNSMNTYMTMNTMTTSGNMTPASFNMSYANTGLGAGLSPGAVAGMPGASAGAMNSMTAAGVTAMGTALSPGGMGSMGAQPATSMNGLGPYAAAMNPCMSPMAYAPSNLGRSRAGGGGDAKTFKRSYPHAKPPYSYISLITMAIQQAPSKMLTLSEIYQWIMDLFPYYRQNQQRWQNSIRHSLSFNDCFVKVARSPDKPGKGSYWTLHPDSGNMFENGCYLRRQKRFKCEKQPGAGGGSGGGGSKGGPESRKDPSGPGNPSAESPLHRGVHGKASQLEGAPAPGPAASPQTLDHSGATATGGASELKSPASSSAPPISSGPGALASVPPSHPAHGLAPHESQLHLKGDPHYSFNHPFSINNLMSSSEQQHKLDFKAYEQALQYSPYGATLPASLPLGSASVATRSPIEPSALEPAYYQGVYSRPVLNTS
Method: EMSA with sequencing
Molecule type: double-stranded DNA, one strand shown
Sample: in vitro
Concentration: 10 and 20 nM
Notes: whole designed probe, mean of two concentrations, ends assumed
Baseline: negative control set to 0
Direction: higher = stronger binding
Endpoint: normalised bound fraction
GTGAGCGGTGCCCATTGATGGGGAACGACAGTACATGTTTTAGGATTTTTGGACCACACAGTCTCTGTCACAATGACTCAGCTTTGCCATTGTAGCGTGCAAACAGCCACAAACCATATGCAATCTAAGAGGGTGTGGTTGTATGCCAATAAAACTTTATTTACAAAAGCAGGAGGACAGTGGAGTTGGCTTGCAGACAGTCATTTGCAGAGCCCTGATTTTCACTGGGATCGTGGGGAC: 0.261 ratio
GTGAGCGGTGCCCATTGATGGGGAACCTTTGCAAAGCTATGCAAATTATAAAGCAATTCATTATGGTTAAGAAAAGAGTTTTTCCCAAAGAGCTGCAAATACTCACCAGTGACACAAAGTAAACAAAGACCCAAAGATGGAACCAAAAGATAGTTCTTGTCTTTAGAGGAAGAATATCCAAGATGCATTGGACAGAACAAATAATACCCTAGTGTGTTATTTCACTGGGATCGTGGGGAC: 0.545 ratio
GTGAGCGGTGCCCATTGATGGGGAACGCCACAGTTCAAGTTCAAAGAGAAACACTCTAGCAACTTCTGAAAGCAGGAACTGTATGCAACTGAATGACCTCATCCGGCACAGAAGCCAGAGCAATCTATGAAAAACAAACCGTACCAACTCTGGTACCAGTTACTGACCTTCCAGACCAAGAGAACGTGCTGGCAGCACTGGTGAAATGTACTTGTCTGTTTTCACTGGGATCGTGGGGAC: -0.0143 ratio
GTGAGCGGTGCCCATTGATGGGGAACTGGCCTTCTGGCCCTATCTGCTCCGTGCCCAACCCAGCGCCCCGCACAGTCGGAGCTTTGTAAATACGAGGTGACTGTCTGCCTACAAACTTTGTAAACATCACTTGAAAACGCCGCAGGGTATTGTGACATGGCCATACCACTATTTGTTTGCTATTGAATTTGTACTTCCCTGCCTTACTTTTGCTATTGCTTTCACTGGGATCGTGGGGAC: 0.383 ratio
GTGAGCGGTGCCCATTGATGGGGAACGGCTGCTTCTCCCTTTTGGCTGTTGTGCATATTGCTGCTATGAACATGGGTGTGCAAATACCTCTTTGAGTCACTGCTTTCACTTCTTTTTAGTATTTACTCAGCAGTGGAATTCCAGAGTCATGTGATAATTCTGTGTTTAATTTTTTTTGAGGAAACTCCATACTGTTCTCATGGTGGCTGCACCATTTAATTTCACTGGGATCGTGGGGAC: 0.359 ratio

Sample 7
Target: Interferon regulatory factor 5, full length, phosphomimetic (IRF5, Homo sapiens, UniProt Q13568-2, residues 1-514, S451D/S453D/S456D/S462D)
Method: protein-binding microarray
Molecule type: double-stranded DNA, one strand shown
Sample: in vitro
Concentration: 940 nM top
Notes: 60-bp whole probe
Added: salmon DNA 0.4 mg/ml
Baseline: random background probes
Direction: higher = stronger binding
Endpoint: fitted relative affinity
Shared flanks, not repeated: GCCTAGCAC … GTCTTGATTCGCTTGACGCTGCTG
TTAGATCTCAGACTTGATTAGTGCTAG: -0.299 z-score
TCTTATATACCTGTATATCTGTGCTAG: 0.371 z-score
GACTAACTGAGACTGGAGACGTGCTAG: 0.0272 z-score
CTAGTTTTCATTTTCTGAATGTGCTAG: 1.97 z-score
TCACATTTTCGTTTTTAACTGTGCTAG: 2.16 z-score
TTAGAGATCGGGACTGGATTAGTGCTA: -0.282 z-score
GACGGATTCGACTTTCGGGACGTGCTA: 0.947 z-score
CGGCCTCTAGGTTTTCTGAAGTGCTAG: -0.388 z-score
GACGGACTGCGTCTCGGGACGTGCTAG: -0.405 z-score
TTAGCACTGGGGTATCGATTAGTGCTA: 2.87 z-score
TCAATTATATCTGTGTTACTGTGCTAG: 0.937 z-score
TCACGGATGATCTCTCTGACTGTGCTA: 0.0171 z-score
GAAGATCTCAGACTGGAGACGTGCTAG: -0.614 z-score
TACGGACTGGGACTGGGGACGTGCTAG: -0.479 z-score
TTAGAACTGGGGAATGGATTAGTGCTA: 0.233 z-score
TCCTATATCTGAACCGCAGAGTGCTAG: 0.454 z-score

A few entries again (sample 3):
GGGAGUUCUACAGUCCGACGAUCGUCCUGUGCUACACAUCGUAUGUACCGAAUCGGGAAAAAGGGAAAAAGGGAAAAAGGGGAAAGUAUUAUGUUACGCCGUUCGGAUCUGCAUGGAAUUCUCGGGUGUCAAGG: 0.0133
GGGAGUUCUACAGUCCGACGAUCGCUGGAAGUAAAAACAAAUGGAAAUGCUUCGGAUAGUGGCAGGGGUGGGGGUUGCUAAGGAAAGGGUGGGAUGGGAGUGGGUAAAGAGUUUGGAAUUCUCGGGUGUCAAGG: -0.209
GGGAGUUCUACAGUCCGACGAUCAGUCCUGUGCUACACAUCGUAUGUACCGAAUCGGGUUUUUGGGUUUUUUUGGGAGGGAAAGUAUUAUGUUACGCCGUUCGGAUCUGCACUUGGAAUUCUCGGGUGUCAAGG: 0.137
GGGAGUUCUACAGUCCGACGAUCCACAGACAACACGCACCCACACAGACACAGAGGGAAGGGGUUGGGAUGGGGACAGGGUGCACAGCAGGGCGGGGUAGGACCCCAACCCCUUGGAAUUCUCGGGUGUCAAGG: 0.52
